Results collected from several papers.
A part holds a random share of what one study measured.

Study 1
Target: Prothrombin, mature alpha-thrombin (F2, Homo sapiens, UniProt P00734)
Method: aptamer microarray, sandwich
Molecule type: DNA with 2'F-ANA
Medium: in vitro
Tested at: 200 nM
Setting: whole 15-mer aptamer, many near background
Together with: Cy3 exosite-II aptamer, 400 nM
Direction: higher = stronger binding
Sequence: GGTTGGTGTGGTTGG
| Modification | mean fluorescence intensity |
| --- | --- |
| 2'F-ANA at 2 3 4 7 10 13 14 | 198 a.u. |
| 2'F-ANA at 3 5 6 8 9 12 15 | 261 a.u. |
| 2'F-ANA at 1 2 3 8 9 13 15 | 234 a.u. |
| 2'F-ANA at 1 3 4 6 7 12 13 | 279 a.u. |
| 2'F-ANA at 2 3 4 5 9 10 11 12 14 | 51.4 a.u. |
| 2'F-ANA at 1 3 4 6 8 11 15 | 154 a.u. |
| 2'F-ANA at 1 2 4 5 6 7 9 13 14 | 48.2 a.u. |
| 2'F-ANA at 1 3 9 10 11 13 14 | 74.8 a.u. |

Study 2
Target: Centromere-binding protein 1, full length, His-tagged (CBF1, Saccharomyces cerevisiae, UniProt P17106, residues 1-351)
Sequence of UniProt P17106 (whole entry, looked up): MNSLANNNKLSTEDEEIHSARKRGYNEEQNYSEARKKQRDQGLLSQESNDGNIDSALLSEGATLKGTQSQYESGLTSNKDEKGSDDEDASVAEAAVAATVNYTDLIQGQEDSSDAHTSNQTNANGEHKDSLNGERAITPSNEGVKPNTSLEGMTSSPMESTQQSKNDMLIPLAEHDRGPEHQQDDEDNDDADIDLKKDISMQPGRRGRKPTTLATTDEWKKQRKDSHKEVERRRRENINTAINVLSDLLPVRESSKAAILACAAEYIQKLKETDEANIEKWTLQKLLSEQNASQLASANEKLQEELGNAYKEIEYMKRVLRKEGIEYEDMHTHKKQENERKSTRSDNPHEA
Method: competition protein-binding microarray
Molecule type: double-stranded DNA, one strand shown
Medium: in vitro
Tested at: 2 µM
Setting: whole 60-bp probe, lowest competitor level
Together with: Pho4 competitor, 0.05 µM
Direction: higher = stronger binding
| Sequence | fluorescence intensity [a.u.] |
| --- | --- |
| TGCGCAACAACTTGCCTTGTGGGTGTATGTCTAGAAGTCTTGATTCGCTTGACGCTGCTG | 57 |
| TCGGACTAGACGCTGGGCGTGCATCGCCAGTGAAAAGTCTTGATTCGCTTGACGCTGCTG | 50.1 |
| TGGTATCGCGAAAGAAACGTGTAGGCAATTAGGACTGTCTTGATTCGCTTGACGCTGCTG | 118 |
| ACTCTGTTTGCGAGTCACGTGAAATATTTCCTGTGGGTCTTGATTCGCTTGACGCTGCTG | 7760 |
| TGCGCAACAACTTGGGAAGTGGGTGTATGTCTAGAAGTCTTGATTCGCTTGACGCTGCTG | 57 |
| CATACCCAACCTTGTCTTGTGGGTGAAGATATTTGTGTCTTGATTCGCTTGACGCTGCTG | 76.5 |
| TACAGCATATTTCGTCACGTGTGTTCGTCGAGCTGGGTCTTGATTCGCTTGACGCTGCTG | 6450 |
| TGGCCTAAGGTGAAGGTCGTGCTTTTTGTTCAATTGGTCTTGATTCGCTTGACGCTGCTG | 67.8 |

Study 3
Target: HLA class I histocompatibility antigen, A alpha chain, allele A*80:01 (Homo sapiens, UniProt P04439)
Read-out: peptide-MHC binding
Molecule type: peptide
Tested at: concentration not given
| Molecule | binding |
| --- | --- |
| FPDGKPFTL | inactive |
| SAYYLDIGF | inactive |
| KVVPRRKAK | inactive |

Study 4
Target: UBE2D2 UBC core domain (UniProt P62837)
Sequence of UniProt P62837 (whole entry, looked up): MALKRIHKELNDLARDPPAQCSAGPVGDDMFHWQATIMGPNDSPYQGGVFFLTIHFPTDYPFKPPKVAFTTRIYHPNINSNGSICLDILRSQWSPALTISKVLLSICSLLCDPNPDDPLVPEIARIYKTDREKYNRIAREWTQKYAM
Method: yeast two-hybrid
Medium: yeast
Setting: mostly zero background
Relative to: not given
Direction: higher = stronger interaction
B1: TRIM13 RING domain (UniProt O60858); chain MELLEEDLTCPICCSLFDDPRVLPCSHNFCKKCLEGILEGSVRNSLWRPAPFKCPTCRKETSATGINS
B2: TRIM5 RING domain (UniProt Q9C035); chain LREVKLSPEGQKVDHCARHGEKLLLFCQEDGKVICWLCERSQEHRGHHTFLTEEVAREYQVKL
B3: DTX4 RING domain (UniProt Q9Y2E6); chain QKVRHPPDEDCTICMERLTAPSGYKGPQPTVKPDLVGKLSRCGHVYHIYCLVAMYNNGNKDGSLQCPTCKTIYGVKTGTQ
B4: TRAF5 RING domain (UniProt O00463); chain FVERLEERYKCAFCHSVLHNPHQTGCGHRFCQHCILSLRELNTVPICPVDKEVIKSQEVFK
B5: RC3H1 RING domain (UniProt Q5TC82); chain QAPQWTDFLSCPICTQTFDETIRKPISLGCGHTVCKMCLNKLHRKACPFDQTTINTDIELL
B6: SH3RF2 RING domain (UniProt Q8TEC5); chain DDLTLLDLLECPVCFEKLDVTAKVLPCQHTFCKPCLQRVFKAHKELRCPECRTPVFSNIEAL
| Molecule | lacZ reporter activity |
| --- | --- |
| B1 (TRIM13 RING domain) | 0 |
| DHGAVGQEMCCPICCSEYVKGEVATELPCHHYFHKPCVSIWLQKSGTCPVCRCMFPPPL (PJA1 RING domain (UniProt Q8NG27)) | 0 |
| B2 (TRIM5 RING domain) | 0 |
| QVDKAVFHMQSVKCLKCQEQKRAVLPCQHAALCELCAEGSECPICQPGRAHTLQS (UNK RING domain (UniProt Q9C0B0)) | 0 |
| B3 (DTX4 RING domain) | 0 |
| B4 (TRAF5 RING domain) | 0 |
| VEPSEENSKDCVVCQNGTVNWVLLPCRHTCLCDGCVKYFQQCPMCRQFVQESFALC (CGRRF1 RING domain (UniProt Q99675)) | 0 |
| B5 (RC3H1 RING domain) | 0 |
| B6 (SH3RF2 RING domain) | 0 |

Excerpt of the above (study 4):
| Molecule | lacZ reporter activity |
| --- | --- |
| VEPSEENSKDCVVCQNGTVNWVLLPCRHTCLCDGCVKYFQQCPMCRQFVQESFALC (CGRRF1 RING domain (UniProt Q99675)) | 0 |
| B5 (RC3H1 RING domain) | 0 |
| B6 (SH3RF2 RING domain) | 0 |
